Results from different studies.
Lines come from different studies, so protocols differ. ≈ marks a conversion by molar mass, not a printed value.

The kinetic solubility of `NC1CCN(C(=O)Oc2cccc([C@H]3CCC[C@@]4(C3)OOC3(O4)C4CC5CC(C4)CC3C5)c2)C1` (stereo partly shown) is reported as 24.6 µM (≈ 11.5 µg/mL) (PBS; pH 7.4).
`CC1COC2=C1C(=O)C(=O)c1c2ccc2c1C(OC(=O)CNC(=O)CN)CCC2(C)C` (mixture of isomers) has a thermodynamic solubility of 178 µg/mL (PBS; pH 7.4, 25 °C).
For `CC[C@H](C)[C@H](NC(=O)[C@H](C)NC(=O)CNC(=O)[C@H](Cc1ccccc1)NC(=O)[C@H](CC(N)=O)NC(=O)[C@H](CC(N)=O)NC(=O)[C@H](CO)NC(=O)[C@H](CO)NC(=O)[C@H](Cc1c[nH]cn1)NC(=O)[C@@H](NC(=O)[C@H](CC(C)C)NC(=O)[C@H](Cc1ccccc1)NC(=O)[C@H](CC(N)=O)NC(=O)[C@H](C)NC(=O)[C@H](CC(C)C)NC(=O)[C@H](CCCNC(=N)N)NC(=O)[C@H](CCC(N)=O)NC(=O)[C@@H](NC(=O)[C@H](C)NC(=O)[C@@H]1CSSC[C@H](NC(=O)[C@@H](N)CCCCN)C(=O)N[C@@H](CC(N)=O)C(=O)N[C@@H]([C@@H](C)O)C(=O)N[C@@H](C)C(=O)N[C@@H]([C@@H](C)O[C@H]2O[C@H](CO)[C@H](O)[C@H](O[C@@H]3O[C@H](CO)[C@H](O)[C@H](O)[C@H]3O)[C@H]2NC(C)=O)C(=O)N1)[C@@H](C)O)C(C)C)C(=O)N[C@@H](CC(C)C)C(=O)N[C@@H](CO)C(=O)N[C@@H](CO)C(=O)N[C@H](C(=O)N[C@@H](CC(N)=O)C(=O)N[C@H](C(=O)NCC(=O)N[C@@H](CO)C(=O)N[C@@H](CC(N)=O)C(=O)N[C@H](C(=O)N[C@@H](Cc1ccc(O)cc1)C(N)=O)[C@@H](C)O)C(C)C)[C@@H](C)O`, the thermodynamic solubility was 81 µg/mL (≈ 19 µM) (PBS; 1 h, pH 7.4).
For `CC(C)N1CCCCC1C(=O)NC(Cc1ccc(-c2ccccc2)cc1)B(O)O` (stereo not shown), the solubility was 67 µM (≈ 26.4 µg/mL) (nephelometry; aqueous buffer; pH 6.8).
The thermodynamic solubility of `CC[C@H](C)[C@H](NC(=O)[C@H](C)NC(=O)CNC(=O)[C@H](Cc1ccccc1)NC(=O)[C@H](CC(N)=O)NC(=O)[C@H](CC(N)=O)NC(=O)[C@H](CO)NC(=O)[C@H](CO)NC(=O)[C@H](Cc1c[nH]cn1)NC(=O)[C@@H](NC(=O)[C@H](CC(C)C)NC(=O)[C@H](Cc1ccccc1)NC(=O)[C@H](CC(N)=O)NC(=O)[C@H](C)NC(=O)[C@H](CC(C)C)NC(=O)[C@H](CCCNC(=N)N)NC(=O)[C@H](CCC(N)=O)NC(=O)[C@@H](NC(=O)[C@H](C)NC(=O)[C@@H]1CSSC[C@H](NC(=O)[C@@H](N)CCCCN)C(=O)N[C@@H](CC(N)=O)C(=O)N[C@@H]([C@@H](C)O)C(=O)N[C@@H](C)C(=O)N[C@@H]([C@@H](C)O)C(=O)N1)[C@@H](C)O)C(C)C)C(=O)N[C@@H](CC(C)C)C(=O)N[C@@H](CO)C(=O)N[C@@H](CO)C(=O)N[C@H](C(=O)N[C@@H](CC(N)=O)C(=O)N[C@H](C(=O)NCC(=O)N[C@@H](CO)C(=O)N[C@@H](CC(N)=O)C(=O)N[C@H](C(=O)N[C@@H](Cc1ccc(O)cc1)C(N)=O)[C@@H](C)O)C(C)C)[C@@H](C)O[C@H]1O[C@H](CO)[C@H](O)[C@H](O[C@@H]2O[C@H](CO)[C@H](O)[C@H](O)[C@H]2O)[C@H]1NC(C)=O` is reported as 20 µg/mL (≈ 4.69 µM) (PBS; 1 h, pH 7.4).
`Cc1ncsc1-c1ccc(CNC(=O)[C@@H]2C[C@@H](O)CN2C(=O)[C@@H](NC(=O)CCCCCCCCCC(=O)NCCN2CCN(Cc3cccc(-c4ccc(N5CCN(C)CC5)c(NC(=O)c5c[nH]c(=O)cc5C(F)(F)F)c4)c3)CC2)C(C)(C)C)cc1` has a kinetic solubility of less than 1.56 µM (aqueous buffer; pH 7.4).
With `CC1COC2=C1C(=O)C(=O)c1c2ccc2c1C(OC(=O)CNC(=O)C(N)CCC(=O)O)CCC2(C)C` (mixture of isomers) the thermodynamic solubility was 1700 µg/mL (PBS; pH 6.4, 25 °C).
The thermodynamic solubility of `CC[C@H](C)[C@H](NC(=O)[C@H](C)NC(=O)CNC(=O)[C@H](Cc1ccccc1)NC(=O)[C@H](CC(N)=O)NC(=O)[C@H](CC(N)=O)NC(=O)[C@H](CO)NC(=O)[C@H](CO)NC(=O)[C@H](Cc1c[nH]cn1)NC(=O)[C@@H](NC(=O)[C@H](CC(C)C)NC(=O)[C@H](Cc1ccccc1)NC(=O)[C@H](CC(N)=O)NC(=O)[C@H](C)NC(=O)[C@H](CC(C)C)NC(=O)[C@H](CCCNC(=N)N)NC(=O)[C@H](CCC(N)=O)NC(=O)[C@@H](NC(=O)[C@H](C)NC(=O)[C@@H]1CSSC[C@H](NC(=O)[C@@H](N)CCCCN)C(=O)N[C@@H](CC(N)=O)C(=O)N[C@@H]([C@@H](C)O)C(=O)N[C@@H](C)C(=O)N[C@@H]([C@@H](C)O)C(=O)N1)[C@@H](C)O[C@H]1O[C@H](CO[C@]2(C(=O)O)C[C@H](O)[C@@H](NC(C)=O)[C@H]([C@H](O)[C@H](O)CO)O2)[C@H](O)[C@H](O[C@@H]2O[C@H](CO)[C@H](O)[C@H](O)[C@H]2O)[C@H]1NC(C)=O)C(C)C)C(=O)N[C@@H](CC(C)C)C(=O)N[C@@H](CO)C(=O)N[C@@H](CO)C(=O)N[C@H](C(=O)N[C@@H](CC(N)=O)C(=O)N[C@H](C(=O)NCC(=O)N[C@@H](CO)C(=O)N[C@@H](CC(N)=O)C(=O)N[C@H](C(=O)N[C@@H](Cc1ccc(O)cc1)C(N)=O)[C@@H](C)O)C(C)C)[C@@H](C)O` is reported as 680 µg/mL (≈ 149 µM) (PBS; 1 h, pH 7.4).
The thermodynamic solubility of `CC1COC2=C1C(=O)C(=O)c1c2ccc2c1C(OC(=O)CNC(=O)C(N)CO)CCC2(C)C` (mixture of isomers) is reported as 491 µg/mL (water; 25 °C).
`Cc1ccc(CNC(=O)c2ccn3c(-c4ccc(C#N)cc4)cnc3c2)cn1` has a kinetic solubility of 2.26 µM (≈ 0.83 µg/mL) (aqueous buffer; pH 7.4).

For quick reference, copied from above:
The thermodynamic solubility of `CC1COC2=C1C(=O)C(=O)c1c2ccc2c1C(OC(=O)CNC(=O)C(N)CO)CCC2(C)C` (mixture of isomers) is reported as 491 µg/mL (water; 25 °C).
